Assay results gathered from unrelated publications.
± gives the spread as reported. Converted amounts (≈) assume the structure as drawn.

CCCCCCCCCCCCCC[N+](C)(C)CCCCCCCCCCCCCC  hepatic clearance (in vitro-in vivo extrapolation; human): 0.679 mL/h/g liver
CC(C)c1nc(CN(C)C(=O)N[C@H](C(=O)N[C@@H](Cc2ccccc2)C[C@H](O)[C@H](Cc2ccccc2)NC(=O)OCc2cncs2)C(C)C)cs1  AUC(0-24) (healthy human volunteers, plasma; oral, dose not given, alone, omeprazole interaction study): 13700 ng·h/mL
CC(C)C[C@H](NC(=O)[C@H](CCC(=O)O)NC(=O)[C@H](CCC(=O)O)NC(=O)[C@H](CC(=O)O)NC(=O)[C@H](CCC(=O)O)NC(=O)[C@H](CCC(=O)O)NC(=O)[C@H](CCC(=O)O)NC(=O)[C@@H](N)CC(=O)O)C(=O)O  concentration (rat, CSF; subcutaneous, 11.0 mg/kg, 150 min): 9.4 ng/mL
COC(=O)N[C@H](C(=O)N1CCC[C@H]1C(=O)Nc1ccc([C@@H]2CC[C@@H](c3ccc(NC(=O)[C@@H]4CCCN4C(=O)[C@@H](NC(=O)OC)C(C)C)cc3)N2c2ccc(C(C)(C)C)cc2)cc1)C(C)C  AUC(0-24) (healthy human volunteers, plasma; oral, dose not given, alone, omeprazole interaction study): 1490 ng·h/mL
Nc1ccn([C@@H]2O[C@H](CO)[C@@H](O)C2(F)F)c(=O)n1  LD50 (chick embryo day 7, chorioallantoic membrane; topical, 5 d): 587 µM
CCCCCCCCCCCC[N+](C)(C)C.[Br-]  surface partition coefficient (air-water interface): 7.42e-07 m
COc1cc2c(cc1OC)C(=O)C(CC1CCN(Cc3ccccc3)CC1)C2 (stereo not shown)  systolic blood pressure (human; oral, 5 mg daily, 3 days): 116 mmHg
Cc1cc(C(C#N)c2ccc(Cl)cc2)c(Cl)cc1NC(=O)c1cc(I)cc(I)c1O (stereo not shown)  Tmax (HPLC, non-compartmental; Corriedale lambs, parasitized, plasma; oral, 10 mg/kg, with: moxidectin 0.2 mg/kg oral): 36.2 ± 16.6 h
COc1ccc(-c2cc(=O)c3c(OC)c(OC)c(OC)cc3o2)cc1  tissue to peel content ratio (C57BL/6 mouse, male, colon; oral, 1% w/w in diet, 6 weeks, orange peel extract diet; baseline: content in orange peel): 0.198%
Oc1cccc2ccccc12  body length (fish short-term reproduction; Oryzias latipes, female, water, flow-through; 258 µg/L, end of exposure): 39 ± 0.3 mm
CC[C@H](C)[C@H](NC(=O)[C@@H](N)CCCNC(=N)N)C(=O)N[C@H](C(=O)N1CCC[C@H]1C(=O)N[C@@H](C)C(N)=O)C(C)C  Tmax (healthy volunteers, both sexes, plasma; intravenous infusion, 5.0 mg/kg, single ascending dose): 0.0817 ± 0.0167 h
CCCCCCCCCC[N+](C)(C)Cc1ccccc1  intrinsic clearance (substrate depletion; human liver microsomes; 0.5 µM, 0 to 3 h, 37 °C, with: NADPH): 1.43 mL/h/mg protein
Nc1nc2c(c(=O)[nH]1)N(C=O)C(CNc1ccc(C(=O)N[C@@H](CCC(=O)O)C(=O)O)cc1)CN2 (stereo partly shown)  MTD (human advanced solid tumours; intravenous, every 2 weeks, with: FOLFOX): 400 mg/m²
CC(C)[C@@H]1NC(=O)[C@H](C)OC(=O)[C@@H](C(C)C)NC(=O)[C@@H](C(C)C)OC(=O)[C@H](C(C)C)NC(=O)[C@H](C)OC(=O)[C@@H](C(C)C)NC(=O)[C@@H](C(C)C)OC(=O)[C@H](C(C)C)NC(=O)[C@H](C)OC(=O)[C@@H](C(C)C)NC(=O)[C@@H](C(C)C)OC1=O  partition coefficient (n-decane over 0.1 M KCl): 3400
O=C1Nc2cc3c(OS(=O)(=O)O)cccc3c3c4c(cc1c23)OCO4  urine concentration (Wistar rat, male, urine; subcutaneous, 2 mg of aristolochic acid I, 24 h collection): 0.15 µM
triclabendazole sulfone  metabolised fraction (human liver mitochondrial fraction; 1 µM, 30 min): 0%
[123I]c1cncc(OC[C@@H]2CCN2)c1  tissue/plasma ratio (SPECT; human, low plasma nicotine, cortex; intravenous, dose not given; baseline: plasma): 20.9
CC(C)[C@H]1C(=O)N[C@@H](CCCN=C(N)N)C(=O)NCC(=O)N[C@@H](CC(=O)O)C(=O)N[C@H](Cc2ccccc2)C(=O)N1C  plasma half-life (NMRI mice, male, plasma; intravenous, 2.5 mg/kg): 0.32 h
O[C@H]1CCCN[C@@H]1CCCn1cnc2c(Cl)c(Cl)ccc21  MRT (healthy human volunteers, plasma; oral, 100 mg, day 1, multiple ascending dose): 6.84 h
CC1N=C(c2ccccc2F)c2cc(NCc3ccccc3)ccc2NC1=O (stereo not shown)  solubility (shake flask; PBS; 24 h, pH 7.4): 1.35 µM (≈ 0.504 µg/mL)
CNC(=O)c1ccc(-c2cnn3ccc(C(=O)N(C)c4ccc(Cl)c(C(=O)OC)c4)cc23)cc1  AUC(0-8 h) (Wistar rats, both sexes, plasma; oral, 250 mg/kg/day, day 14, 2-week toxicology study): 10.3 ng·h/mL
N[C@@H](CC(=O)N1CCc2c(nc(C(F)(F)F)nc2C(F)(F)F)C1)CN1CC(F)(F)CCC1=O  pre-dose concentration (human, plasma; oral, dose not given, 14 day washout, carryover, one subject; baseline: Cmax): < 5%
N#CC(=C(/N)Sc1ccccc1N)/C(C#N)=C(/N)Sc1ccccc1N  CC50 (cell viability, MTT; mouse lung slices; 48 h): 72.3 µM
CC(=O)N[C@H](CCCCNC(=O)C(C)F)C(=O)N[C@@H](CS)C(=O)N[C@@H](CS)C(=O)N[C@@H](CCC(=O)O)C(=O)N[C@@H](Cc1c[nH]cn1)C(=O)N[C@H](Cc1ccccc1)C(=O)N[C@@H](CCCNC(=N)N)C(=O)N[C@@H](Cc1c[nH]c2ccccc12)C(=O)N[C@@H](CS)C(=O)N[C@@H](CCCNC(=N)N)C(=O)N1CCC[C@H]1C(=O)N[C@H](C(N)=O)C(C)C (stereo partly shown) [fluorine-18 labelled]  tumour to tissue uptake ratio (male C57BL/6 mice, B16-F10 tumour; intravenous, 1 h; baseline: tumour over muscle): 5.78 ± 1.35
N[C@@H](CC(=O)N1CCc2c(nc(C(F)(F)F)nc2C(F)(F)F)C1)CN1CC(F)(F)CCC1=O  AUC(tau) ratio steady state (healthy Korean men, plasma; oral, dose not given, with: glimepiride; baseline: with over without glimepiride): 1
CSCC[C@@H]1NC(=O)[C@H](CC(=O)O)NC(=O)CNC(=O)[C@H](CCCNC(=N)N)NC(=O)[C@H](C)NC(=O)[C@H](CCC(=O)O)NC(=O)[C@H](CCCNC(=N)N)NC(=O)[C@@H]2CSSC[C@@H]3NC(=O)[C@H](CO)NC(=O)[C@H]([C@@H](C)O)NC(=O)[C@@H]4CCCN4C(=O)[C@H](C)NC(=O)[C@H](Cc4c[nH]c5ccccc45)NC(=O)[C@H](CC(=O)O)NC(=O)CNC(=O)[C@H](CCCNC(=N)N)NC(=O)CNC(=O)[C@H](CCC(N)=O)NC(=O)[C@@H]4CCCN4C(=O)[C@@H](NC(=O)CNC(=O)C(C)F)CSSC[C@H](NC(=O)CNC(=O)[C@H](C)NC(=O)[C@H](CC(C)C)NC(=O)[C@H](CSSC[C@@H](C(=O)NCC(N)=O)NC(=O)[C@H]([C@@H](C)O)NC(=O)[C@H](CCCNC(=N)N)NC(=O)[C@@H]4CCCN4C1=O)NC(=O)[C@H](CC(=O)O)NC(=O)[C@H](CO)NC(=O)[C@H](CC(=O)O)NC(=O)[C@H](CCC(N)=O)NC(=O)[C@H](CO)NC3=O)C(=O)N[C@@H](C(C)C)C(=O)N2 (stereo partly shown) [fluorine-18 labelled]  tissue uptake (nude mouse, U-87 MG xenograft, lungs; intravenous, 2.5 h, with: cyclo(RGDyK) co-injected): 0.47 ± 0.18 %ID/g
CN[C@@](C)(C[18F])C(=O)O  tissue uptake (SCID mouse MDA-MB-468 xenograft, brain; 60 min, post injection): 0.3 ± 0.01 %ID/g
CC[C@H](C)[C@@H]1NC(=O)[C@H]([C@@H](C)O)NC(=O)[C@@H](NC(=O)[C@H](Cc2ccccc2)NC(=O)[C@H](C)NC(=O)[C@H](CCCCN)NC(=O)[C@H](CCCCN)NC(=O)[C@H](CC(C)C)NC(=O)[C@@H](NC(=O)[C@H](CCCCN)NC(=O)[C@H](C)NC(=O)[C@H](C)NC(=O)[C@@H](NC(=O)CNC(=O)[C@H](C)NC(=O)[C@@H](NC(=O)[C@H](CCCCN)NC(=O)[C@@H]2CCCN2C(=O)[C@H](Cc2ccccc2)NC(=O)[C@@H](N)Cc2ccccc2)C(C)C)C(C)C)C(C)C)CSSC[C@@H](C(=O)O)NC(=O)[C@H](CCCCN)NC(=O)[C@H](CCCCN)NC(=O)[C@H](CO)NC1=O  HC10 (haemolysis; horse erythrocytes; 2 h, 37 °C): 2.51 µM
CS(=O)(=O)CCCn1c(Cn2c(=O)n(CC(F)(F)F)c3ccncc32)cc2cc(Cl)ccc21  patients with low MCH (RSV-infected infants; concentration not given, mid dose cohorts): 8%
COc1ccc(C[C@@H]2NC(=O)[C@H]([C@@H](C)O)NC(=O)[C@@H]3[C@@H]4CCN3C(=O)[C@@H]3Cc5cn(c6ccc(F)cc56)CCCCCCN(Cc5ccc(cc5)CCNC(=O)[C@]5(C)CCCN5C2=O)C(=O)CCC(=O)N[C@@H](C)C(=O)N[C@H](CNC(=O)CCCCC[N+](C)(C)C)C(=O)N[C@@H](Cc2cccc(c2)CNC(=O)CO4)C(=O)N3)cc1  AUC(0-t) (fasted healthy humans, plasma; oral, 35 mg single dose, with 1800 mg Labrasol, geometric mean): 0.501 µM·h
O=C(c1ccc(F)c(F)c1Nc1ccc(I)cc1F)N1CC(O)([C@@H]2CCCCN2)C1  treatment-related adverse events (refers to: retinal detachment; human patients; oral, dose not given, dose escalation, tablet, grade G3): 0%

A few entries again:
O[C@H]1CCCN[C@@H]1CCCn1cnc2c(Cl)c(Cl)ccc21  MRT (healthy human volunteers, plasma; oral, 100 mg, day 1, multiple ascending dose): 6.84 h
CC1N=C(c2ccccc2F)c2cc(NCc3ccccc3)ccc2NC1=O (stereo not shown)  solubility (shake flask; PBS; 24 h, pH 7.4): 1.35 µM (≈ 0.504 µg/mL)
CNC(=O)c1ccc(-c2cnn3ccc(C(=O)N(C)c4ccc(Cl)c(C(=O)OC)c4)cc23)cc1  AUC(0-8 h) (Wistar rats, both sexes, plasma; oral, 250 mg/kg/day, day 14, 2-week toxicology study): 10.3 ng·h/mL
